# Assay results gathered from unrelated publications.
# Compare with care: the assays were run in different laboratories. “And” joins repeats or separate records; there may be more than shown. ± gives the spread as reported.
# Chain of UniProt Q05655 (whole entry, looked up): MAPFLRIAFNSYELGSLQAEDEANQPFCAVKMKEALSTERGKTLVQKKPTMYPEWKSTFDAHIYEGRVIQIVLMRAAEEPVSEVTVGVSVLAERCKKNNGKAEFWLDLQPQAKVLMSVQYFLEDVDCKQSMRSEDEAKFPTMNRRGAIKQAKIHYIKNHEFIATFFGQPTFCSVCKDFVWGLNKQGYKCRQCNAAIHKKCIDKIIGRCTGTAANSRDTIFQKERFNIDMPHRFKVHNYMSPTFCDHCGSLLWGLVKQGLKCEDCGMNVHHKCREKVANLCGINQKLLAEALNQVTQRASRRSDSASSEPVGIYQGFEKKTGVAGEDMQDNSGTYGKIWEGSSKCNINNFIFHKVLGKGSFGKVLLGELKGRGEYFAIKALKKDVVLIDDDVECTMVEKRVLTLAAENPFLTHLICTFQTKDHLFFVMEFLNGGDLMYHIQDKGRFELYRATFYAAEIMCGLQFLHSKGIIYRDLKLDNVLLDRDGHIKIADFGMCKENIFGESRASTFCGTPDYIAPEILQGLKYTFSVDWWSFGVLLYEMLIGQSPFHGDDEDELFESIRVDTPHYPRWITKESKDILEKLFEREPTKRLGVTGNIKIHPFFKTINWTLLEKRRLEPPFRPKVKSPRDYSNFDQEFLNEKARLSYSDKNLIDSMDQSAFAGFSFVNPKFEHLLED
SMILES,tested on,assay,system,setting,how to read,measurement,result
COc1ccc(-c2c(-c3ccc(C#N)c(F)c3)nc(N3CCC(N)CC3)n(C)c2=O)cc1F,,refers to: Pruritus,neuroendocrine neoplasm patients,"oral, 60 mg, grade 3 to 4, dose expansion",,treatment-related adverse event incidence,0%
COc1ncccc1-c1cnn2ccc(N3CCN(C(=O)OC(C)C)CC3)nc12,,,"rat, STZ model, brain","oral, 30 mg/kg, 240 min",,drug concentration,29 µM
COc1cccc(Oc2ccccc2NC(=O)CNC(=O)c2cccc3ccccc23)c1,,,"esterase-deficient SCID mice, male, blood","oral, 40 mg/kg/day, 14 days, toxicity study",,mean corpuscular hemoglobin concentration,32.1 g/dL and 33.9 g/dL and 32.8 g/dL
CC(C)[C@@H]1NC(=O)CNC(=O)[C@H](CC(N)=O)NC(=O)[C@H](CCCNC(=N)N)NC(=O)[C@H](Cc2ccc(O)cc2)NC(=O)[C@H](C(C)C)NC(=O)[C@@H](NC(=O)[C@@H](NC(=O)[C@H](CC(N)=O)NC(=O)[C@H](Cc2c[nH]c3ccccc23)NC(=O)[C@H](C)NC(=O)[C@H](Cc2ccccc2)NC(=O)CN)C(C)C)CSSC[C@@H](C(=O)N[C@@H](Cc2cnc[nH]2)C(=O)N[C@@H](CCCNC(=N)N)C(=O)N[C@@H](CCCNC(=N)N)C(=O)N[C@@H](C)C(=O)N[C@@H](CC(N)=O)C(N)=O)NC(=O)[C@H](C(C)C)NC(=O)[C@H](CCCNC(=N)N)NC1=O,,,"ICR mice, blood","intraperitoneal, 10 mg/kg, day 5",,mean corpuscular volume,40.2 ± 0.54 fL
CCCC(CCC)NC(=O)c1ccc2c(c1)OCO2,,,"Swiss albino CD-1 mice, male, bone marrow","intraperitoneal, 175 mg/kg, 24 h",,micronucleated PCEs,0.1%
CC(C)C[C@H](NC(=O)[C@H](CCCCN)NC(=O)OCC1c2ccccc2-c2ccccc21)C(=O)N[C@H](C(=O)N[C@@H](Cc1ccccc1)C(=O)N[C@@H](Cc1ccccc1)C(=O)N[C@@H](CCCCN)C(=O)NCC(=O)N[C@@H](Cc1ccccc1)C(=O)N[C@@H](C)C(=O)N[C@@H](Cc1c[nH]c2ccccc12)C(=O)N[C@@H](CC(N)=O)C(=O)N[C@H](C(=O)N[C@H]1CSSC[C@@H](C(=O)N[C@@H](Cc2c[nH]cn2)C(=O)N[C@@H](CCCNC(=N)N)C(=O)N[C@@H](CCCNC(=N)N)C(=O)N[C@@H](C)C(=O)N[C@@H](CC(N)=O)C(N)=O)NC(=O)[C@H](C(C)C)NC(=O)[C@H](CCCNC(=N)N)NC(=O)[C@H](C(C)C)NC(=O)CNC(=O)[C@H](CC(N)=O)NC(=O)[C@H](CCCNC(=N)N)NC(=O)[C@H](Cc2ccc(O)cc2)NC(=O)[C@H](C(C)C)NC1=O)C(C)C)C(C)C,,,"ICR mice, blood","intraductal mammary, 5 mg/kg, day 5",,mean platelet volume,6.86 ± 0.35 fL
Oc1ccccc1-c1nc(-c2cccs2)c(-c2cccs2)[nH]1,Vero-E6,CellTiter-Glo ATP,,"72 h, retest 8-point duplicates","relative to: DMSO 0%, hyamine -100%, more negative, more toxic",maximum response,-7.09%
CC[C@H](C)[C@H](NC(=O)[C@H](CC(C)C)NC(=O)[C@H](Cc1c[nH]c2ccccc12)NC(=O)[C@H](CCC(N)=O)NC(=O)[C@@H](NC(=O)[C@H](Cc1ccccc1)NC(=O)[C@H](C)NC(=O)[C@H](CCCCNC(=O)COCCOCCNC(=O)COCCOCCNC(=O)CC[C@H](NC(=O)CCCCCCCCCCCCCCCCCCC(=O)O)C(=O)O)NC(=O)[C@H](CCC(N)=O)NC(=O)[C@H](C)NC(=O)[C@@H](NC(=O)[C@H](CCCCN)NC(=O)[C@H](CC(=O)O)NC(=O)[C@H](CC(C)C)NC(=O)C(C)(C)NC(=O)[C@@H](NC(=O)[C@H](CO)NC(=O)[C@H](Cc1ccc(O)cc1)NC(=O)[C@H](CC(=O)O)NC(=O)[C@H](CO)NC(=O)[C@@H](NC(=O)[C@H](Cc1ccccc1)NC(=O)[C@@H](NC(=O)CNC(=O)[C@H](CCC(=O)O)NC(=O)C(C)(C)NC(=O)[C@@H](N)Cc1ccc(O)cc1)[C@@H](C)O)[C@@H](C)O)[C@@H](C)CC)[C@@H](C)CC)C(C)C)C(=O)N[C@@H](C)C(=O)NCC(=O)NCC(=O)N1CCC[C@H]1C(=O)N[C@@H](CO)C(=O)N[C@@H](CO)C(=O)NCC(=O)N[C@@H](C)C(=O)N1CCC[C@H]1C(=O)N1CCC[C@H]1C(=O)N1CCC[C@H]1C(=O)N[C@@H](CO)C(N)=O,,,"human, plasma","subcutaneous, 5 mg first dose, week 1, 15 mg group, tau 168 h, geometric mean",,AUC(0-tau),54400 ng·h/mL
COc1cc2c(Oc3ccc4[nH]c(C)cc4c3F)ccnc2cc1OCC1(N)CC1,,,paediatric recurrent refractory sarcoma,12 mg,,grade 3 sinus arrhythmia,0%
NC(=O)[C@H]1CCN(c2ncnc(N)c2F)C[C@@H]1N1CCC[C@@H](Nc2cc(Cl)cc(C(F)(F)F)c2)C1=O,,,B-cell malignancy patients,"oral, 164 mg twice daily, dose",,grade ≥3 platelet decrease,25%
O[C@H]1CCCN[C@@H]1CCCn1cnc2c(Cl)c(Cl)ccc21,,,human,"oral, single dose",,participants with TEAEs,25%
Cc1cccc(Cn2nc(C3CC3)c3c(NC(=O)c4cnc5cc(OCCN6CCN(C)CC6)ccn45)cccc32)n1,,refers to: Diarrhea,human platinum-resistant ovarian cancer,"oral, dose not given, all-causality",,adverse events incidence,18.2%
Oc1ccc(CSCc2ccc(O)cc2)cc1,,,ICR mice male,"oral, 3000 mg/kg, day 15, acute toxicity",,body weight,37.2 ± 1.09 g
COc1ccc([C@@H]2CC(=O)c3c(O)cc(O)cc3O2)cc1O,,,"Sprague-Dawley rat, male, obese, faeces","oral, 100 mg/kg neohesperidin, 48 h",relative to: dose,faecal recovery,1.23 ± 0.04%
C[C@@H](NC(=O)N1C(=O)[C@H](Cc2ccnc(N)c2)[C@H]1C(=O)O)C1CCCCC1,,,healthy Chinese adults,"continuous intravenous infusion, 0.6 mg/kg/h, 5.0 days",,related decreased WBC,0%
Clc1ccc2nc(N3CCC(NCCc4cccnc4)CC3)sc2c1,Vero-E6,CellTiter-Glo ATP,,"72 h, second round 5-point","relative to: DMSO 0%, hyamine -100%, more negative, more toxic",maximum response,-14%
C[C@@H](O)[C@@H]1NC(=O)CNC(=O)[C@H](Cc2c[nH]cn2)NC(=O)[C@H](Cc2c[nH]c3ccccc23)NC(=O)[C@H](CC(N)=O)NC(=O)CNC(=O)C[C@@H](C(=O)N[C@@H](Cc2c[nH]c3ccccc23)C(=O)N[C@@H](Cc2ccccc2)C(=O)N[C@@H](Cc2ccccc2)C(=O)N[C@@H](CC(N)=O)C(=O)N[C@@H](Cc2ccc(O)cc2)C(=O)N[C@@H](Cc2ccc(O)cc2)C(=O)N[C@@H](Cc2c[nH]c3ccccc23)C(=O)O)NC(=O)[C@@H]2CCCN2C(=O)[C@H](CO)NC1=O,,rapid equilibrium dialysis,human plasma,"20 µM, time not given",,recovery,86.2%
O=S(=O)(Nc1ccccc1)c1ccc(NC(=S)Nc2ccccc2)cc1,,,"male mouse, blood","oral, 5 mg/kg daily, 14 days",,haemoglobin,14.1 g/dL
CO[C@H]1C[C@@H]2CC[C@@H](C)[C@@](O)(O2)C(=O)C(=O)N2CCCC[C@H]2C(=O)O[C@H]([C@H](C)C[C@@H]2CC[C@@H](OC(=O)NCCOCCOCCOCCOCCOCCOCCOCCOCCC(=O)N3CCc4cc(Cn5nc(-c6ccc7oc(N)nc7c6)c6c(N)ncnc65)ccc4C3)[C@H](OC)C2)C[C@@H](O)[C@H](C)/C=C(\C)[C@@H](O)[C@@H](OC)C(=O)[C@H](C)C[C@H](C)/C=C/C=C/C=C/1C,,,patients with advanced solid tumours,"intravenous, 10 mg weekly, grade 3 or higher",,AE leading to dose reduction,0%
C[C@@H]1OC(=O)NN=C1c1ccc(-c2ccc(F)cc2)c(C(F)(F)F)c1,,"phase I trial, refers to: Presyncope worst grade 2",human patients,10 mg loading then 0.5 mg daily,,patients with adverse event,100%
Cn1c(-c2ccc(C(N)=O)cc2F)nnc1C(C)(C)Oc1c(F)cc(Cl)cc1F,,,human,"oral, 10 mg, single ascending dose",,gastrointestinal disorder TEAE,0%
CC(C)=CC1C(C(=O)OC(C#N)c2cccc(Oc3ccccc3)c2)C1(C)C (stereo not drawn),,refers to: CYP2C9,"human, age 1 year",,,enzyme contribution to clearance,7.71%
COc1cc(Nc2ncc(F)c(Nc3ccc4c(n3)NC(=O)C(C)(C)O4)n2)cc(OC)c1OC,,,non-kinase assay buffer,"24 h, pH 7.5, 1% DMSO",,solubility,1.4 µM
C[C@]1(CO)Cc2ncn(-c3ccc(C#N)c(Cl)c3)c2C(=O)O1,,,human,"20 mg multiple doses, fasted",,subjects with drug-related somnolence,0%
Cc1cc(C)c(CNC(=O)c2cc(Cl)c3c(c2C)O[C@@](C)([C@H]2CC[C@H](N(C)C)CC2)O3)c(=O)[nH]1,,,"human, relapsed/refractory NHL","concentration not given, treatment-related TEAEs, grade 5",,Hypophosphataemia incidence,0%
C[C@H]1CN(c2n[nH]c3nc(N[C@H]4CC[C@H](NS(=O)(=O)CCC(F)(F)F)CC4)ncc23)CCO1,"PRKCD (Homo sapiens, UniProt Q05655)","inhibitor, Kinobeads competition profiling",,0.16 µM,relative to: vehicle,relative abundance,0.97
CCC[C@@](N)(CO)CCc1ccc(OCCCCCC(C)C)cc1,,ECG and echocardiography,"hound dog, male",dose not given,,"QT interval, cardiac conduction",no effect
O=C1Nc2cc3[nH]nc(-c4ccncc4)c3cc2CN1Cc1ccccc1,,CTCAE v4.03,advanced solid tumour patients,"intravenous, 4.8 mg/kg",,patients with blurred vision,0%
CN1CC[C@@H](c2c(O)cc(O)c3c(=O)cc(-c4ccc(C(F)(F)F)cc4Cl)oc23)[C@@H]1CO,,refers to: febrile neutropenia,B-cell malignancies,"oral, 200 mg, grade 3 to 4, intermittent dosing",,patients with adverse event,0%
CCc1ccc(CC/C=C/c2ccc3c(c2)C(=O)CC3)cc1,,,"Sprague-Dawley rat, male","oral, 30 mg/kg/day, 14 days",,ALT serum activity,53.3 U/L
O=c1ccc2ncc(=O)n3c2n1C[C@H]3CN1CCC(NCc2cc3c(cn2)OCCC3)CC1,,,healthy human volunteers,"oral, 1500 mg, single dose alone, geometric mean",,renal clearance,275 mL/min
C[C@]1(O)C[C@@](N)(c2ccc(-c3nc4n(c3-c3ccccc3)COc3ccncc3-4)cc2)C1,,,"human, advanced or metastatic solid tumours","24 mg intermittent, phase I dose escalation",,patients with grade ≥3 TEAE,75%
CC(C)n1c(C2CCNCC2)nc2c([N+](=O)[O-])c(Br)c(Br)cc21,,,patients with AML,"125 mg, febrile neutropenia",,AE leading to interruption,6%

# For quick reference, copied from above:
SMILES,tested on,assay,system,setting,how to read,measurement,result
C[C@@H]1OC(=O)NN=C1c1ccc(-c2ccc(F)cc2)c(C(F)(F)F)c1,,"phase I trial, refers to: Presyncope worst grade 2",human patients,10 mg loading then 0.5 mg daily,,patients with adverse event,100%
C[C@@H](NC(=O)N1C(=O)[C@H](Cc2ccnc(N)c2)[C@H]1C(=O)O)C1CCCCC1,,,healthy Chinese adults,"continuous intravenous infusion, 0.6 mg/kg/h, 5.0 days",,related decreased WBC,0%
CN1CC[C@@H](c2c(O)cc(O)c3c(=O)cc(-c4ccc(C(F)(F)F)cc4Cl)oc23)[C@@H]1CO,,refers to: febrile neutropenia,B-cell malignancies,"oral, 200 mg, grade 3 to 4, intermittent dosing",,patients with adverse event,0%
COc1cc(Nc2ncc(F)c(Nc3ccc4c(n3)NC(=O)C(C)(C)O4)n2)cc(OC)c1OC,,,non-kinase assay buffer,"24 h, pH 7.5, 1% DMSO",,solubility,1.4 µM
